Results of several laboratories.
Protocols differ between the studies behind these lines. Numbers after ± are the reported error.

For `CCCC[C@H](NC(=O)CNC(=O)CNC(=O)CN1CCN(CC(=O)O)CCN(CC(=O)O)CCN(CC(=O)O)CC1)C(=O)N[C@H]1CC(=O)NCCCC[C@@H](C(N)=O)NC(=O)[C@H](Cc2c[nH]c3ccccc23)NC(=O)[C@H](CCCNC(=N)N)NC(=O)[C@@H](Cc2ccccc2)NC(=O)[C@H](Cc2c[nH]cn2)NC1=O` [copper-64 labelled], the uptake ratio was 0.7 (female C57 mouse, B16/F1 melanoma; intravenous, 0.037 MBq, 4 h; reference: tumour over kidneys).
For `COC(=O)C(c1ccccc1Cl)N1CCC(SCC(=O)c2cccc(OC)c2)C(=CC(=O)O)C1` (mixture of isomers), “deviation from nominal” read -1% (HPLC-MS/MS; feline citrate plasma; 100 ng/mL, 12 h, -80 °C, storage stability).
`Nc1nccc(-c2cn(C3CC3)c3ccccc23)n1` has a plasma concentration of 37.2 ng/g (radiolabelled metabolite profiling; human male, plasma; oral, 110 mg, 10 h).
For `C#CCOc1ccc(/C=C2\SC(=O)N(CC(=O)NCc3ccccc3)C2=O)cc1`, “Kirkwood-Buff integral G1,3” read -260 cm³/mol (inverse Kirkwood-Buff integrals; binary solvent mixture; 298.15 K, mole fraction x1 0.70).
The concentration of `CCC(=O)NC1CC=C(c2cc3c(Nc4ccc5scnc5c4)ncnc3s2)CC1` (stereo not drawn) is reported as 84.5 ng/mL (BALB/c mouse, plasma; oral, 10 mg/kg, 2 h).
`Cc1cc2c(cc1C1(c3ncc(C(=O)O)cn3)CC1)C(C)(C)CCC2(C)C` has an HDL level of 41 ± 3.6 mg/dL (Sprague-Dawley rat, male, plasma; oral, 100 mg/kg, 24 h, sesame oil vehicle).
`CC(C)C[C@@H](NC(=O)[C@H](NC(=O)[C@H]1CCCN1)[C@H](C)O)C(=O)N[C@H](Cc1c[nH]cn1)C(=O)N[C@@H](C(=O)N[C@H](Cc1c[nH]cn1)C(=O)N[C@H](CC(N)=O)C(=O)N[C@H](CCCNC(=N)N)C(=O)N[C@H](CCCNC(=N)N)C(=O)N[C@H](CCCNC(=N)N)C(=O)N[C@H](CCCNC(=N)N)C(=O)N[C@H](CCCNC(=N)N)C(N)=O)[C@H](C)O` gave a terminal half-life of about 70 h (Beagle dogs both sexes, plasma; oral, 20 and 50 mg/kg).
Under “apparent volume of distribution”, `Cc1ccc(C(C)C)cc1.O=C(N=P(c1ccccc1)(c1ccccc1)c1ccccc1)c1ccccn1.[Cl-].[Cl-].[Ru+2]` is recorded as 33.6 mL (ICP-MS, measured: ruthenium; NOD.CB17-Prkdc scid/J mouse, plasma; intraperitoneal, 5 mg/kg, after first dose).
`CC12CC(c3ccc(S(C)(=O)=O)cc3)C3=C4CCC(=O)C=C4CCC3C1CCC2(O)C(F)(F)C(F)(F)F` (stereo not drawn) — result for “AUC(0-11 d), geometric mean”: 321 ng·h/mL (human, fasted, plasma; oral, 4 mg, alone, without itraconazole).
Under “anodic peak potential”, `COc1ccc2c(c1)c(CC(=O)[O-])c(C)n2C(=O)c1ccc(Cl)cc1.COc1ccc2c(c1)c(CC(=O)[O-])c(C)n2C(=O)c1ccc(Cl)cc1.[Co+2].c1c[nH]cn1.c1c[nH]cn1` is recorded as -510 mV (cyclic voltammetry; DMSO/buffer; Co(II)/Co(I) couple, no DNA).
With `Cc1ccc(OCC(=O)O)cc1` the t1/2 was 2.26 h (Sprague-Dawley rat, male, plasma; oral, 30 mg/kg/day of parent drug, day 1, 90-day repeated dosing).
For `CC/C=C\C/C=C\C/C=C\C/C=C\C/C=C\CCCCOC(CC)C(=O)O` (stereo not drawn), “AUC(0-24 h) ratio” read about 2 fold (Wistar rat, male, portal vein blood, mesenteric lymph; oral, 100 mg/kg; reference: portal vein over mesenteric lymph).
Under “plasma protein binding”, `COc1ccc(-c2csc(N/N=C(\C)c3cc(O)cc(O)c3)n2)cc1` is recorded as 99.8% (equilibrium dialysis; human, male, plasma; 3 µM, 5 h, pH 7.4).
`CCCC[C@@H]1NC(=O)[C@@H](NC(=O)[C@H](CCC(=O)O)NC(=O)CNC(=O)CN2CCN(CC(=O)O)CCN(CC(=O)O)CCN(CC(=O)O)CC2)CCCCNC(=O)C[C@@H](C(N)=O)NC(=O)[C@H](C(C)C)NC(=O)[C@@H]2CCCN2C(=O)[C@H](CCCNC(=N)N)NC(=O)CNC(=O)[C@H](Cc2c[nH]c3ccccc23)NC(=O)[C@H](CCCNC(=N)N)NC(=O)[C@@H](Cc2ccccc2)NC(=O)[C@H](Cc2c[nH]cn2)NC(=O)[C@H](CCC(=O)O)NC1=O` [gallium-67 labelled] has a tissue uptake of 0.17 ± 0.13 %ID/g (C57 mice with B16/F1 melanoma, blood; intravenous, 4 h).
With `COc1ccc2nnn(C(=O)N3COCC3(C)C)c2c1` the compound remaining was 0% (mouse liver microsomes; 50 µM, 1 h).
For `COc1ccc(NC(=O)[C@H](CCCCN)NC(=O)c2cc(NC(=O)[C@H](CCCCN)NC(=O)c3cc(NC(=O)[C@H](CCCCN)NC(=O)c4cc(N)ccc4OC)ccc3OC)ccc2OC)cc1C(N)=O`, “enthalpy of dissociation” read 15.7 kcal/mol (ITC heats of dilution; TBS; pH 7.4, 25 °C, hexamer to monomer).
`C[C@]12C[C@H](c3ccc(-c4ccc(C(=O)O)cc4)cc3)C3=C4CCC(=O)C=C4CC[C@H]3[C@@H]1CC[C@@]2(O)C(F)(F)C(F)(F)F` has an unbound fraction of 0.006 (human, plasma).
For `Cc1cc(N2CCC(C#N)(C3(C)CC3)C2=O)cc(C(=O)NCc2cc(F)cc(-c3cnn(C)c3)c2)n1` (racemic), “unchanged compound in urine” read “not detected” (male Sprague Dawley rats, urine; dose not given).
With `N=C(N)NCCC[C@@H]1NC(=O)[C@H](Cc2c[nH]c3ccccc23)NC(=O)[C@@H](CC2CCCCC2)NC(=O)[C@@H]2CCCN2C(=O)[C@@H](NC(=O)CCc2ccccc2)CCCNC1=O` the elimination half-life was 2.75 h (C57BL/6J mice, brain; oral, 1 mg/kg).
The CLint of `O=C(O)C1OC(Oc2cccc(-c3nc(N4CCOCC4)c4oc5ncccc5c4n3)c2)C(O)C(O)C1O` (stereo not drawn) is reported as 211 ± 32.8 µL/min/mg (glucuronide formation; human intestinal microsomes; pH 7.4).
`Cn1c(=O)oc2ccc(-c3ccc(CC(C#N)NC(=O)C4CNCCCO4)c(F)c3)cc21` (stereo not drawn): “subjects with urine glucose” 6.7% (human; dose not given, single ascending doses, all subjects).
`C=C(c1ccc(C(=O)O)c(F)c1)c1cc2c(cc1C)C(C)(C)C=CC2(C)C` has an HDL level of 61 ± 23.4 mg/dL (Sprague-Dawley rat, male, plasma; oral, 100 mg/kg, 24 h, sesame oil vehicle).
The fu of `Cc1ccccc1-c1cc(N2CC[N+](C)([O-])CC2)ncc1N(C)C(=O)C(C)(C)c1cc(C(F)(F)F)cc(C(F)(F)F)c1` is reported as under 0.03 (human plasma; unbound fraction).
The unchanged tracer of `O=[11C](OC(C(F)(F)F)C(F)(F)F)N1CCC(CNS(=O)(=O)c2ccc(Cl)cc2)CC1` is reported as 53% (Sprague-Dawley rat, brain homogenate; iv, dose not given, 30 min).
`Nc1ccn(C[C@@H](CO)OCP(=O)(O)OCCCS(=O)(=O)CCCCCCCCCCCCCC2CCC2)c(=O)n1` — result for “liver exposure of CDV and CDV-PP”: “increased” (mouse CFW, male, liver; oral, dose not given, outcome increased; reference: equimolar brincidofovir).
`O=C(NCCCN(CCCCN(CCCNC(=O)c1cccc(=O)n1[O-])C(=O)c1cccc(=O)n1[O-])C(=O)c1cccc(=O)n1[O-])c1cccc(=O)n1[O-].[89Zr+4]` has an intact complex of 97 ± 4.2% (radio-TLC; PBS; 1 h, pH 7.4, 37 °C, added: Fe^3+ 10-fold excess).
For `CCC/C(=C\C1=C(OC)C(=O)c2ccccc2C1=O)C(=O)NOC`, the t1/2 was 4.73 h (human plasma; 1 µM, 37 °C).
`C[C@H](Oc1cc(-c2cnn(C3CCN(CC[18F])CC3)c2)cnc1N)c1c(Cl)ccc(F)c1Cl` gave a tracer uptake of 1.6 ± 0.4 %ID/cc (PET imaging; nude mouse, heart; iv, 60 min post injection).
`CC(C)[C@H](NC(=O)CNC(=O)[C@H](CCC(N)=O)NC(=O)[C@H](C)N)C(=O)O` gave an AUC(0-inf) of 7050 ng·h/mL (human, both sexes, plasma; intravenous infusion, 90 mg/kg/h, 2 h infusion, geometric mean).
The measured concentration of `Cc1ccccc1/N=N/c1ccc(/N=N/c2c(O)ccc3ccccc23)c(C)c1` is reported as 16 µg/L (rat whole blood QC samples; 16.0 µg/L, 4 h, room temperature, short-term stability).
`CC(=O)Nc1ncc(CN2CC[C@H](Oc3cccc([18F])n3)C[C@@H]2C)s1` gave a fraction unbound of 6.7% (ultrafiltration; rhesus monkey, plasma).
The hippocampus-to-cerebellum ratio of `C[C@H](CN(C)Cc1ccccc1)NC(=O)c1ccc(-c2noc(C(F)(F)[18F])n2)cc1` is reported as 1.76 ± 0.21 (PET; Sprague-Dawley rat, female, hippocampus and cerebellum; intravenous, 60 min; reference: hippocampus SUV over cerebellum SUV).
`COc1cc(NC(C)=O)c2c(c1O)-c1c(OC)c(OC)cc3c1C(C2)N(C)CC3` (stereo not drawn) gave a remaining compound of 87.1 ± 1% (rat kidney homogenate; 5 µg/mL, 24 h, room temperature, post-preparative storage).
Under “time on rotating rod”, `Clc1cccc(-c2nnc(/N=C/C=C/c3ccccc3)nc2/N=C/C=C/c2ccccc2)c1Cl` is recorded as 104 ± 76.4 s (rotarod test; white albino mice, both sexes; intraperitoneal, 10 mg/kg).
For `CCCCCCCCCCCCCCCCCC(=O)Nc1ccn(C2OC(CO)C(O)C2(F)F)c(=O)n1` (stereo not drawn), “release rate constant” read 0.328 h⁻¹ (dialysis; PBS; pH 7.4, 37 °C, Tween 80/ethanol).
`CCCC[C@H](NC(=O)CNC(=O)CNC(=O)CN1CCN(CC(=O)O)CCN(CC(=O)O)CCN(CC(=O)O)CC1)C(=O)N[C@H]1CC(=O)NCCCC[C@@H](C(N)=O)NC(=O)[C@H](Cc2c[nH]c3ccccc23)NC(=O)[C@H](CCCNC(=N)N)NC(=O)[C@@H](Cc2ccccc2)NC(=O)[C@H](Cc2c[nH]cn2)NC1=O` [gallium-67 labelled]: “tumour to tissue ratio” 29.7 (female C57 mice, B16/F1 melanoma; intravenous, 0.037 MBq, 2 h; reference: tumour over liver).
For `O=C([O-])CN1CCN(CC(=O)[O-])CCN(CC(=O)NCC2CCC(C(=O)NC(Cc3ccc4ccccc4c3)C(=O)NCCCCC(NC(=O)NC(CCC(=O)O)C(=O)O)C(=O)O)CC2)CCN(CC(=O)[O-])CC1.[44Sc+3]` (stereo not drawn), the intact tracer was over 95% (human serum; 24 h, 37 °C).
For `N#CC1(c2ccc3c(N)ncnn23)OC(COP(=O)(O)O)C(O)C1O` (stereo not drawn), the AUC(0-t) was 1330 nmol·h/kg (LC-MS/MS; CD-1 mouse, lung; oral, 100 mg/kg of remdesivir).
The Cmax of `CC(C)(O)c1ncc([S@](N)(=O)=NC(=O)Nc2c3c(cc4c2CCC4)CCC3)s1` is reported as 11200 ng/mL (healthy human, fasted; oral, 100 mg single dose, spray-dried dispersion).
The compound remaining of `COc1cc(O)c(-c2cc(-c3cc(-c4c(O)cc(OC)c5c4C[C@@H](C)N[C@@H]5C)c4cc(C)cc(OC)c4c3O)c(O)c3c(OC)cc(C)cc23)c2c1[C@@H](C)N[C@H](C)C2` is reported as 98% (metabolic stability; human, liver microsomes; 1 µM, 30 min).
`CCN(CC)c1ccc2c(-c3ccc(S(=O)(=O)NCCNC(=O)CN4CCN(CC(=O)[O-])CCN(CC(=O)O)CCN(CC(=O)[O-])CC4)cc3S(=O)(=O)[O-])c3ccc(=[N+](CC)CC)cc-3oc2c1.[64Cu+2]`: “radioactivity in urine” over 65% (nude mice, U-87 MG xenograft; dose not given, 1 h post-injection; reference: injected dose).
For `OC1(C(F)(F)F)CCN(c2nc(Nc3ccnc(C(F)(F)F)c3)nc(-c3cccc(C(F)(F)F)n3)n2)C1` (stereo not drawn), “central nervous system effect” read “no effect” (Sprague-Dawley rat; oral, up to 50 mg/kg, single dose).
For `COc1ccc2cc(-c3ccc(-c4ccc(C)cn4)nc3)oc2c1`, “fluorescence quantum yield” read 0.91 (MeCN; added: quinine bisulfate reference).
The blood uptake of `COc1cc2c(cc1OC)CN(CCCCn1ccc3cc(OCC[18F])ccc31)C2` is reported as 1.19 ± 0.17 %ID/g (male ICR mice; intravenous, 30 min post-injection).
`COc1cnc2cccc(N3CCc4c(cc(Cn5ccnc5)cc4-c4cn(C)nc4C(F)(F)F)C3=O)c2c1` — result for “whole blood protein binding”: 97.8 ± 0.2% (mouse whole blood; 1 µM, 4 h, pH 7.4).

Repeated from above:
The CLint of `O=C(O)C1OC(Oc2cccc(-c3nc(N4CCOCC4)c4oc5ncccc5c4n3)c2)C(O)C(O)C1O` (stereo not drawn) is reported as 211 ± 32.8 µL/min/mg (glucuronide formation; human intestinal microsomes; pH 7.4).
For `CC/C=C\C/C=C\C/C=C\C/C=C\C/C=C\CCCCOC(CC)C(=O)O` (stereo not drawn), “AUC(0-24 h) ratio” read about 2 fold (Wistar rat, male, portal vein blood, mesenteric lymph; oral, 100 mg/kg; reference: portal vein over mesenteric lymph).
With `N=C(N)NCCC[C@@H]1NC(=O)[C@H](Cc2c[nH]c3ccccc23)NC(=O)[C@@H](CC2CCCCC2)NC(=O)[C@@H]2CCCN2C(=O)[C@@H](NC(=O)CCc2ccccc2)CCCNC1=O` the elimination half-life was 2.75 h (C57BL/6J mice, brain; oral, 1 mg/kg).
For `CCC/C(=C\C1=C(OC)C(=O)c2ccccc2C1=O)C(=O)NOC`, the t1/2 was 4.73 h (human plasma; 1 µM, 37 °C).
`CCCC[C@@H]1NC(=O)[C@@H](NC(=O)[C@H](CCC(=O)O)NC(=O)CNC(=O)CN2CCN(CC(=O)O)CCN(CC(=O)O)CCN(CC(=O)O)CC2)CCCCNC(=O)C[C@@H](C(N)=O)NC(=O)[C@H](C(C)C)NC(=O)[C@@H]2CCCN2C(=O)[C@H](CCCNC(=N)N)NC(=O)CNC(=O)[C@H](Cc2c[nH]c3ccccc23)NC(=O)[C@H](CCCNC(=N)N)NC(=O)[C@@H](Cc2ccccc2)NC(=O)[C@H](Cc2c[nH]cn2)NC(=O)[C@H](CCC(=O)O)NC1=O` [gallium-67 labelled] has a tissue uptake of 0.17 ± 0.13 %ID/g (C57 mice with B16/F1 melanoma, blood; intravenous, 4 h).
The Cmax of `CC(C)(O)c1ncc([S@](N)(=O)=NC(=O)Nc2c3c(cc4c2CCC4)CCC3)s1` is reported as 11200 ng/mL (healthy human, fasted; oral, 100 mg single dose, spray-dried dispersion).
